# Measurements from different studies.
# ± gives the spread as reported.
# UniProt Q13557, sequence (whole entry, looked up): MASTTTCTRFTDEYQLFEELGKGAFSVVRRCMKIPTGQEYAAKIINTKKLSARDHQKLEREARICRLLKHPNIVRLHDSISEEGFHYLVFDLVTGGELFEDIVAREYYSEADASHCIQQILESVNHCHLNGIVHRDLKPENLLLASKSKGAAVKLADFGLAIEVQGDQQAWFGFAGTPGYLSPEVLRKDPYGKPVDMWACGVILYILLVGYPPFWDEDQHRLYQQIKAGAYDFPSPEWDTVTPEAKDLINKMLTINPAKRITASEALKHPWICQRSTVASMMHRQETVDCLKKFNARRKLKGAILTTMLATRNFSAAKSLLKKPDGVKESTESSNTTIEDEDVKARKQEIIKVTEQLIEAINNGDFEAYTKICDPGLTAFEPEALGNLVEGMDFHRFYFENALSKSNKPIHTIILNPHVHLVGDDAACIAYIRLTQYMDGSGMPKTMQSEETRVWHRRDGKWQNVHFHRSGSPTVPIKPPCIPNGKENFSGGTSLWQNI
# UniProt Q13188, sequence (whole entry, looked up): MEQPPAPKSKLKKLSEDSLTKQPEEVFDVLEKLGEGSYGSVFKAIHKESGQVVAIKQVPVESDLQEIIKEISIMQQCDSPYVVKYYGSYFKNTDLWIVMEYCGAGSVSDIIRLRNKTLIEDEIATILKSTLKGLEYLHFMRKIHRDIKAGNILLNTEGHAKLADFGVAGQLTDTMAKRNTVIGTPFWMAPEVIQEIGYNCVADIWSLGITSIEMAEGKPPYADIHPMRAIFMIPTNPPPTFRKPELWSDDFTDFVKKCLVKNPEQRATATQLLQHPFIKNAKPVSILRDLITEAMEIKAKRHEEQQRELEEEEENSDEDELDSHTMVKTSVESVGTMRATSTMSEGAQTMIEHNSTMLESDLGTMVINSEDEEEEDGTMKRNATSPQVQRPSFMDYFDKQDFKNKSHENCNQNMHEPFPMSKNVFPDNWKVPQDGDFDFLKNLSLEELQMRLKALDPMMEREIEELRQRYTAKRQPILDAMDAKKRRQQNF
# UniProt P48730, sequence (whole entry, looked up): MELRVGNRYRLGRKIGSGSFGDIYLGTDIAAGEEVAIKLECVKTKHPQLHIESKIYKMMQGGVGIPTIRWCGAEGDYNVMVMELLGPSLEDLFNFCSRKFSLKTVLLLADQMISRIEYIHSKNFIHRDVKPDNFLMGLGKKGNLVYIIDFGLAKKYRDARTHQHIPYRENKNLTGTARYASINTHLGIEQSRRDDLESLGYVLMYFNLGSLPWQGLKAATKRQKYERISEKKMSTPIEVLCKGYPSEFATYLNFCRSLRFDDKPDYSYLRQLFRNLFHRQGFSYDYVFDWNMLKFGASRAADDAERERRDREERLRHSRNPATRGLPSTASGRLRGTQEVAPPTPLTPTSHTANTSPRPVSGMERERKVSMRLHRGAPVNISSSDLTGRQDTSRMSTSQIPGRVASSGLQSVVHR
Compound,target or system,test,test system,setting,how to read,measurement,result
N#[11C]c1ccc(-c2csc(NN=C3CCCC3)n2)cc1,,,"C57BL/6 mouse, male","intravenous, 3 MBq, 5 min",,uptake in stomach with contents,2.83 ± 0.91 %ID/g
CSCC[C@H](NC(=O)[C@@H](NC(=O)[C@H](CC(C)C)NC(=O)[C@@H](NC(=O)[C@H](Cc1c[nH]cn1)NC(=O)CCCCCNC(=O)[C@H](CCCNC(=N)N)NC(=O)[C@H](CCCNC(=N)N)NC(=O)[C@H](CCCNC(=N)N)NC(=O)[C@H](CCC(N)=O)NC(=O)[C@H](CCCNC(=N)N)NC(=O)[C@H](CCCNC(=N)N)NC(=O)[C@H](CCCCN)NC(=O)[C@H](CCCCN)NC(=O)[C@H](CCCNC(=N)N)NC(=O)CNC(=O)[C@@H](N)Cc1ccc(O)cc1)C(C)C)C(C)C)C(=O)N[C@@H](CS)C(=O)N[C@@H](C)C(=O)N[C@H](C(N)=O)[C@@H](C)O,,,"C57BL/6J mouse, blood","Alzet pump, 3 mg/kg, 8 weeks",,serum sodium,149 mmol/L
COc1ccccc1-c1n[nH]c2nc(NC3CCN(C(=O)Cc4ccc(F)cc4F)CC3)ncc12,,"bead binding, competition bead pull-down, refers to: LINJ.10.0200",Leishmania donovani extract,10 µM,baseline: vehicle,relative abundance,0.77
CC(C)[C@@H]1NC(=O)CNC(=O)[C@H](CC(N)=O)NC(=O)[C@H](CCCNC(=N)N)NC(=O)[C@H](Cc2ccc(O)cc2)NC(=O)[C@H](C(C)C)NC(=O)[C@@H](NC(=O)[C@@H](NC(=O)[C@H](CC(N)=O)NC(=O)[C@H](Cc2c[nH]c3ccccc23)NC(=O)[C@H](C)NC(=O)[C@H](Cc2ccccc2)NC(=O)CNC(=O)[C@H](CCCCN)NC(=O)[C@H](Cc2ccccc2)NC(=O)[C@H](Cc2ccccc2)NC(=O)[C@H](CCCCN)NC(=O)OCC2c3ccccc3-c3ccccc32)C(C)C)CSSC[C@@H](C(=O)N[C@@H](Cc2c[nH]cn2)C(=O)N[C@@H](CCCNC(=N)N)C(=O)N[C@@H](CCCNC(=N)N)C(=O)N[C@@H](C)C(=O)N[C@@H](CC(N)=O)C(N)=O)NC(=O)[C@H](C(C)C)NC(=O)[C@H](CCCNC(=N)N)NC1=O,,,"ICR mice, blood","intraperitoneal, 10 mg/kg, day 5",,haematocrit,40.2 ± 1.22%
CC(C)(C)C(=O)OCOP(=O)(OCOC(=O)C(C)(C)C)C1CCCN(O)C1=O (stereo not shown),NCI-H23,,,,,log LC50,> -4 log M
C=CC(=O)Nc1cccc(Cn2ncc3cnc(Nc4cnn(CCOC)c4)nc32)c1,,,"Sprague-Dawley rat male, serum","oral, 180 mg/kg, day 28, 28-day subacute toxicity",,serum cholesterol,1.33 ± 0.31 mM
CN(C)C(=O)c1cncc(-c2cnc3[nH]cc(-c4cc(OS(=O)(=O)F)ccc4C(F)(F)F)c3c2)c1,,HPLC,,"50 µM, 37 °C, no lysine, followed to 24 h",,hydrolytic half-life,> 1440 min
CN1Cc2cc(Cl)ccc2-n2c(nnc2C2CCN(c3cccc([18F])n3)CC2)C1,,,"C57BL/6 mouse male, pancreas","intravenous, 3.7 MBq, 1 min",,tissue uptake,6.71 ± 2.91 %ID/g
CC(=O)NCCCC[C@@H]1NC(=O)[C@H](Cc2c[nH]c3c(C)cccc23)NC(=O)[C@H]([C@@H](C)O)NC(=O)[C@H](CC(N)=O)NC(=O)[C@@H](NC(C)=O)C(C)(C)SSC(C)(C)[C@@H](C(=O)N[C@@H](Cc2ccc(OCCN)cc2)C(=O)N[C@@H](Cc2ccc3ccccc3c2)C(=O)NC2(C(=O)N[C@@H](CCC(=O)O)C(=O)N[C@@H](CC(N)=O)C(=O)N[C@@H](Cc3cccnc3)C(=O)N(C)CC(N)=O)CCOCC2)NC1=O,,,"cynomolgus monkey, ileum","intravenous, 1 mg/kg",baseline: plasma concentration,tissue concentration,74%
O=C1NC2(CC2)COc2ncc(F)cc2[C@H]2COCCN2c2ccn3ncc1c3n2,,,"Sprague-Dawley rat, male, serum","oral, 10 mg/kg/day, 4 weeks daily, end of treatment",,creatine kinase activity,573 ± 217 U/L
CC(C)[C@H]1NC(=O)C[C@H]2/C=C/CCSSC[C@@H](NC1=O)C(=O)N[C@H](Cc1cccc3ccccc13)C(=O)NCC(=O)O2,"STK3 (Homo sapiens, UniProt Q13188)","enzyme activity, inhibitor",,10 µM,,inhibition,-2.7%
N=C(N)NCCC[C@H](NC(=O)[C@H](CCCNC(=N)N)NC(=O)[C@H](CCCNC(=N)N)NC(=O)[C@H](CCC(N)=O)NC(=O)[C@H](CCCNC(=N)N)NC(=O)[C@H](CCCNC(=N)N)NC(=O)[C@H](CCCCN)NC(=O)[C@H](CCCCN)NC(=O)[C@H](CCCNC(=N)N)NC(=O)CNC(=O)[C@H](Cc1ccc(O)cc1)NC(=O)[C@H](Cc1ccccc1)NC(=O)[C@H](Cc1ccccc1)NC(=O)[C@H](Cc1ccccc1)NC(=O)OCC1c2ccccc2-c2ccccc21)C(=O)O,,,C57BL/6 mice,"intraperitoneal, 5 mg/kg, 6 h",direction not given,health score,5
COc1ccccc1-c1n[nH]c2nc(N[C@H]3CC[C@H](NS(=O)(=O)CC(C)C)CC3)ncc12,,"bead binding, competition bead pull-down, refers to: LMJF.27.0930",Leishmania donovani extract,10 µM,baseline: vehicle,relative abundance,1.2
CCCC[C@H]1C(=O)N(C)[C@@H](CCCC)C(=O)N[C@@H](CCCNC(=O)CN2CCN(CC(=O)O)CCN(CC(=O)O)CCN(CC(=O)O)CC2)C(=O)N[C@H](C(=O)NCC(N)=O)CSCC(=O)N[C@@H](Cc2ccc(O)cc2)C(=O)N(C)[C@@H](C)C(=O)N[C@@H](CC(N)=O)C(=O)N2CCC[C@H]2C(=O)N[C@@H](Cc2c[nH]cn2)C(=O)N[C@@H](CC(C)C)C(=O)N(C)CC(=O)N[C@@H](Cc2c[nH]c3ccccc23)C(=O)N[C@@H](CO)C(=O)N[C@@H](Cc2c[nH]c3ccccc23)C(=O)N1C [gallium-68 labelled],,,"NOD/SCID mice with CHO-hPD-L1 xenograft, stomach",60 min post injection,,tissue uptake,5.67 ± 2.31 %ID/g
CS(C)(=O)=Nc1ccc(-c2ccc(-c3nc4cc(O[C@@H]5CO[C@H]6[C@@H]5OC[C@H]6O)[nH]c4cc3F)cc2)cc1,"CSNK1D (Homo sapiens, UniProt P48730)","enzyme activity, inhibitor",,10 µM,,inhibition,6%
C#Cc1c(F)ccc2cc(O)cc(-c3ncc4c(N5CC6CCC(C5)N6C(=O)OC(CC)OC(=O)CCC)nc(OC[C@@]56CCCN5C[C@H](F)C6)nc4c3F)c12 (stereo partly shown),,chemical stability,simulated intestinal fluid,"1 µM, 30 min",,compound remaining,101%
CSCC[C@@H]1NC(=O)[C@H](C(C)C)NC(=O)[C@H](CCCNC(=N)N)NC(=O)CNC(=O)[C@@H]2CCCN2C(=O)[C@@H](NC(=O)CNC(=O)[C@H](CO)NC(=O)CNC(=O)[C@H](CO)NC(=S)Nc2ccc(C[C@H]3CN(CC(=O)O)CCN(CC(=O)O)CCN3CC(=O)O)cc2)CSSC[C@@H](C(N)=O)NC(=O)[C@@H]2CCCN2C(=O)CNC(=O)[C@H](CCC(=O)O)NC(=O)[C@H](CC(=O)O)NC(=O)[C@H](CC(=O)O)NC(=O)CNC(=O)[C@H](CC(C)C)NC(=O)[C@H](Cc2c[nH]cn2)NC(=O)[C@H](CC(C)C)NC(=O)CNC(=O)[C@H](Cc2c[nH]cn2)NC1=O [copper-64 labelled],,dynamic PET,"CD rat, myocardial infarction model, fibrotic infarct myocardium","intravenous, 18.5 MBq, 5 to 60 min",,half-life,22.9 ± 5.5 min
CC[C@H](C)[C@H](NC(=O)[C@H](CCCCN)NC(=O)CNC(=O)[C@H](CC(C)C)NC(=O)[C@H](Cc1ccccc1)NC(=O)[C@H](CCCCN)NC(=O)[C@H](CO)NC(=O)[C@H](Cc1ccccc1)NC(=O)[C@H](Cc1c[nH]c2ccccc12)NC(=O)[C@H](CCC(N)=O)NC(=O)[C@@H](NC(=O)[C@H](Cc1ccccc1)NC(=O)CCCCCNC(=O)CN1CCN(CC(=O)O)CCN(CC(=O)O)CCN(CC(=O)O)CC1)C(C)C)C(=O)N[C@@H](CCC(=O)O)C(=O)N1CCC[C@H]1C(=O)N[C@@H](CC(=O)O)C(=O)N[C@H](C(=O)N[C@@H](CO)C(=O)N[C@@H](CCC(N)=O)C(=O)N[C@H](C(=O)N[C@@H](CCC(N)=O)C(=O)N[C@@H](CC(=O)O)C(=O)N1CCC[C@H]1C(=O)N[C@@H](CC(N)=O)C(=O)N[C@@H](CC(=O)O)C(=O)N[C@@H](CCC(N)=O)C(=O)N[C@@H](Cc1ccc(O)cc1)C(=O)N[C@@H](CCC(=O)O)C(=O)N1CCC[C@H]1C(=O)N[C@@H](Cc1ccccc1)C(=O)O)C(C)C)C(C)C [copper-64 labelled],,,"C57BL/6 mice, heart",with: LPS 0.1 mg/kg intratracheal,,tissue uptake,1.29 ± 0.3 %ID/g
CN(C)[C@H]1C[C@@]23CC[C@@]4(O2)C(=CC[C@]2(C)[C@@H](c5ccc6ccncc6c5)CC[C@H]24)C=C3[C@@H](O)[C@@H]1O,"CAMK2D (Homo sapiens, UniProt Q13557)","ATP probe labelling, inhibitor, KiNativ profiling",,0.1 µM,,inhibition,-7.4%

# Some of these lines once more:
Compound,target or system,test,test system,setting,how to read,measurement,result
COc1ccccc1-c1n[nH]c2nc(N[C@H]3CC[C@H](NS(=O)(=O)CC(C)C)CC3)ncc12,,"bead binding, competition bead pull-down, refers to: LMJF.27.0930",Leishmania donovani extract,10 µM,baseline: vehicle,relative abundance,1.2
